# Measurements from different studies.
# Each line is one published result; not all experiments were run side by side. ± gives the spread as reported.
SMILES,test system,conditions,half-life [h]
CCOc1ccc(NC(=S)N(CCO)Cc2cc3cc(C)cc(C)c3[nH]c2=O)cc1,"C57BL/6J mouse, plasma",3 mg/kg,< 1
CC(C)NC(=O)COc1cccc(-c2nc(Nc3ccc4[nH]ncc4c3)c3ccccc3n2)c1,"male C57BL/6 mouse, plasma","oral, 100 mg/kg, one-compartment model",3.69
Cc1c2oc3c(C)ccc(C(=O)N[C@@H]4C(=O)N[C@H](C(C)C)C(=O)N5CCC[C@H]5C(=O)N(C)CC(=O)N(C)[C@@H](C(C)C)C(=O)O[C@@H]4C)c3nc-2c(C(=O)N[C@@H]2C(=O)N[C@H](C(C)C)C(=O)N3CCC[C@H]3C(=O)N(C)CC(=O)N(C)[C@@H](C(C)C)C(=O)O[C@@H]2C)c(N)c1=O,"mouse, FVB wild-type, kidney","intravenous, 0.5 mg/kg",2.18
Cc1cc(N(CCO)CCO)ccc1C(=O)O,"mouse CD2F1, plasma","intravenous, 20 mg/kg",0.567
CSc1cc(C)nc(SC)c1NC(=O)CN1CCN(CCSc2nc3ccccc3[nH]2)CC1.Cl,"CD-1 mouse, female, plasma","intranasal, 32.4 µg/10 µL, 7 days repeated",0.245 ± 0.0183
O=C(c1ccc2ncc(-c3ccc4c(=O)[nH]ccc4c3)nc2c1)N1CCCCC1,"ICR/CD-1 mouse, female, mouse liver S9 fraction","2 µM, pH 7.5",> 4
Nc1ccn([C@@H]2O[C@H](CO)[C@@H](O)C2(F)F)c(=O)n1,"BALB/c mouse, male, plasma","intravenous, 38 µmol/kg",1.46 ± 0.53
Cl.Nc1ncc(-c2cnc3ccc(C(=O)N4CCCCC4)cc3n2)cc1Cl,"ICR/CD-1 mouse, female, liver S9","2 µM, pH 7.5",3.3
CNC(=O)c1cc(Oc2ccc(NC(=O)Nc3ccc(Cl)c(C(F)(F)F)c3)cc2)ccn1,"nude mouse, LM3 tumour xenograft, subcutaneous tumour","intratumoral, PXR siRNA",50.3 ± 3.57

# Repeated from above:
SMILES,test system,conditions,half-life [h]
CC(C)NC(=O)COc1cccc(-c2nc(Nc3ccc4[nH]ncc4c3)c3ccccc3n2)c1,"male C57BL/6 mouse, plasma","oral, 100 mg/kg, one-compartment model",3.69
